Literature values, collected from citations in different studies.
Lines come from different studies, so protocols differ. Numbers after ± are the reported error.
Sequence of UniProt Q9Y2K2 (whole entry, looked up): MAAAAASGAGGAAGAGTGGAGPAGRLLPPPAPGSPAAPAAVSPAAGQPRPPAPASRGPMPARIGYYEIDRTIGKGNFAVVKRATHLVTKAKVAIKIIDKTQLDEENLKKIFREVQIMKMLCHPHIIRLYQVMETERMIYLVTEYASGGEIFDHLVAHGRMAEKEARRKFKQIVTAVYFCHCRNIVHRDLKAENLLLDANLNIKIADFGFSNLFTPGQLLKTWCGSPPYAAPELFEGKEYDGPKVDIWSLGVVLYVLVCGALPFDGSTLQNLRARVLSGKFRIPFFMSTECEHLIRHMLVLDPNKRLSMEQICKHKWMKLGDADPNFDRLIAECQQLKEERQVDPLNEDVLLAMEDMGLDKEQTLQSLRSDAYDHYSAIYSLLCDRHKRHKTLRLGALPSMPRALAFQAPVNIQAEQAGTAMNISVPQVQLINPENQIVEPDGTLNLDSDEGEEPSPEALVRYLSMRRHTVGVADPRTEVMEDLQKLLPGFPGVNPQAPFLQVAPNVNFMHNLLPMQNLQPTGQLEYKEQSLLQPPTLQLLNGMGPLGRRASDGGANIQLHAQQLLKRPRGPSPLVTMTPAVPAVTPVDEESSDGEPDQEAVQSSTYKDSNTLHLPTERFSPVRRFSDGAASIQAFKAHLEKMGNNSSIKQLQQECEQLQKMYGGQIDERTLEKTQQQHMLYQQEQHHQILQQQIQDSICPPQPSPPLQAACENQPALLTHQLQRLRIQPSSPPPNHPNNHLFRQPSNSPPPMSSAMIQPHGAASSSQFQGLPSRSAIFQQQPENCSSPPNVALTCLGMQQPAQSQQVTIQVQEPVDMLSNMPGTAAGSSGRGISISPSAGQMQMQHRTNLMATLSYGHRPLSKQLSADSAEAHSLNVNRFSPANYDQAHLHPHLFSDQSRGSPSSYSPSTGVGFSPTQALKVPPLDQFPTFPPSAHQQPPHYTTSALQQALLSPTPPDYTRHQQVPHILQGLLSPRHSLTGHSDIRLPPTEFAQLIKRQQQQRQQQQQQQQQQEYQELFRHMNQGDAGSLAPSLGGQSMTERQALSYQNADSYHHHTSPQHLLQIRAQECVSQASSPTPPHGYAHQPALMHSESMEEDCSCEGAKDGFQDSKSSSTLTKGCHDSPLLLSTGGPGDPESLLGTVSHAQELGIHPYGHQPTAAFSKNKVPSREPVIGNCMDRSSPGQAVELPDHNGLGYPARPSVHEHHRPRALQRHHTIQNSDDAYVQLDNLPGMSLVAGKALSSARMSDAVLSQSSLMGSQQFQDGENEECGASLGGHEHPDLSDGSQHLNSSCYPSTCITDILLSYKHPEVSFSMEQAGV
Sequence of UniProt P42336 (whole entry, unmodified, looked up): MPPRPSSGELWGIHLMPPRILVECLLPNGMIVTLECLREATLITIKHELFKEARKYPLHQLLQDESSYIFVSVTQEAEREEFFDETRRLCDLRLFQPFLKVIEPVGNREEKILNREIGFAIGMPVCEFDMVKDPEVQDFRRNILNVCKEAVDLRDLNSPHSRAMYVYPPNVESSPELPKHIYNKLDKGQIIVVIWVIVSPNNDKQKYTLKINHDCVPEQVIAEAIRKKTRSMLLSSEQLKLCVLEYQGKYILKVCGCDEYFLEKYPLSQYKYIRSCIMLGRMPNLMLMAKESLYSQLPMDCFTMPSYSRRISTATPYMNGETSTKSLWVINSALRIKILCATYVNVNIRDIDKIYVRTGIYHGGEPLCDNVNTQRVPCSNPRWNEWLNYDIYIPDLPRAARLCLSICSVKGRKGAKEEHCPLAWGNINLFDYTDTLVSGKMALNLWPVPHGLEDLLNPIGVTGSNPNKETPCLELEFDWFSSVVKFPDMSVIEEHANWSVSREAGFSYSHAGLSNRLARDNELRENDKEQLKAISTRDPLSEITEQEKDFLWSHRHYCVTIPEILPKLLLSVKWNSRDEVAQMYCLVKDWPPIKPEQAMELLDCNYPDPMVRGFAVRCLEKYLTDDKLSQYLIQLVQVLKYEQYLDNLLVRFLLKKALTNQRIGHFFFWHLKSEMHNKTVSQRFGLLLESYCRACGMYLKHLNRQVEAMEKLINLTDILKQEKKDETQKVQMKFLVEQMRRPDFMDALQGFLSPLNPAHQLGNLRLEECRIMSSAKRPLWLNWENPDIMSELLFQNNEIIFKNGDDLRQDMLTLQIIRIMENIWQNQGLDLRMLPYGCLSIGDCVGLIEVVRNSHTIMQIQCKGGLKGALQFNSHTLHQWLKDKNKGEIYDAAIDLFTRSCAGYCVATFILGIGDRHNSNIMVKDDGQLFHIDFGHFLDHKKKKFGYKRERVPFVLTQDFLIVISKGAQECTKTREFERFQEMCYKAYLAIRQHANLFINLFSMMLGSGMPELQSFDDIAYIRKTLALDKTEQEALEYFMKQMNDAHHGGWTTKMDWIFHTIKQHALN
Sequence of UniProt P50613 (whole entry, looked up): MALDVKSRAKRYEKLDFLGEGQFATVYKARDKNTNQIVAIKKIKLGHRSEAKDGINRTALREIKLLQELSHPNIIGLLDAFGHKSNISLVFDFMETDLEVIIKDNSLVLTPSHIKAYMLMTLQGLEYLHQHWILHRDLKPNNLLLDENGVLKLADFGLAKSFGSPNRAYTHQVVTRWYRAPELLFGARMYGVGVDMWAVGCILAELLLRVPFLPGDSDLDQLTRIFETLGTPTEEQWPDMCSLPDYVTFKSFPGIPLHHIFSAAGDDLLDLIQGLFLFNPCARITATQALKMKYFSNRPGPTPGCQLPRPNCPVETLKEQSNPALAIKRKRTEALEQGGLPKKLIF

SMILES | target or system | assay | system | setting | how to read | quantity | value
CN[C@@H](C)C(=O)N[C@H]1CN(S(=O)(=O)c2cccc(S(=O)(=O)N3CC[C@H]4CC[C@@H](C(=O)NC(c5ccccc5)c5ccccc5)N4C(=O)[C@@H](NC(=O)[C@H](C)NC)C3)c2)CC[C@H]2CC[C@@H](C(=O)NC(c3ccccc3)c3ccccc3)N2C1=O |  |  | cynomolgus monkey | dose not given |  | terminal half-life | 0.81 to 5.04 h
O=C1Nc2ccc(Cl)cc2[C@@](C#CC2CC2)(C(F)(F)F)O1 |  |  |  |  |  | fraction absorbed | 0.67
Cc1c(C#N)cccc1[C@@H](C)Nc1nnc(C)c2cnc(N3CCOCC3)cc12 | NCI-H1838 | ERK phosphorylation, In-Cell Western, refers to: phospho-ERK |  |  |  | IC50 | 0.101 ± 0.0145 µM
COc1ncc(-c2nc3c(n2C(C)C)[C@H](c2ccc(Cl)cc2)N(c2cc(Cl)cn(C)c2=O)C3=O)c(OC)n1 |  |  | patients with solid tumours or lymphomas | dose not given, grade ≥3, first-in-human trials |  | patients with related thrombocytopenia | 24%
Cc1cc(NC(=O)c2cccc(NC(=O)/C=C/CN(C)C)c2)ccc1Nc1nccc(-c2cccnc2)n1 | CDK7 (Homo sapiens, UniProt P50613) | enzyme activity, inhibitor |  | 1 µM | baseline: vehicle | remaining activity | 39%
CCN(CC)CC(=O)Nc1c(C)cccc1C | HepG2 | mitochondrial membrane potential |  | concentration not given, Tox21 |  | activity outcome | inactive
C=C1[C@H](CO)[C@@H](O)C[C@@H]1n1cnc2c(=O)[nH]c(N)nc21 |  |  | rat |  |  | oral bioavailability | 80%
CCN(CC)CCNC(=O)c1ccc(NC(C)=O)cc1 | HepG2 | mitochondrial membrane potential |  | concentration not given, Tox21 |  | activity outcome | inactive
CN(C)C(=O)c1cc2cnc(Nc3ccc(N4CCNCC4)cn3)nc2n1C1CCCC1 |  | refers to: anemia | advanced solid tumour or lymphoma patients | dose not given, continuous dosing | baseline: patients | adverse event incidence | 26.3%
c1ccc2c(c1)ccc1ccccc12 |  | substrate | human liver microsomes |  |  | Vmax | 0.304 nmol/min/mg
C[Si]1(C)O[Si](C)(C)O[Si](C)(C)O[Si](C)(C)O[Si](C)(C)O1 |  |  |  | 0.13 0.24 µg/L in water, 24.6 °C |  | log KOA | 4.94
C[C@@H](Oc1ccc(S(C)(=O)=O)cc1C(=O)N1C[C@@H]2C[C@]2(c2cc(C(F)(F)F)on2)C1)C(F)(F)F |  |  | human, Phase I | Asian versus Caucasian participants |  | pharmacokinetic parameters | no effect
c1ccc2c(c1)ccc1ccccc12 |  |  | pooled human liver microsomes | 2.5 µM |  | metabolism rate | 252 pmol/min/mg
CN(C)C(=N)N=C(N)N |  |  | human liver failure patients |  |  | non-renal clearance | 162 mL/min
N#C[C@@]1(c2ccc3c(N)ncnn23)O[C@H](CO)[C@@H](O)[C@H]1O |  |  | dog, plasma | oral, 5 mg/kg, 4 h, solution |  | plasma concentration | 1330 ng/mL
C=CC(=O)N1C[C@H](Nc2ncnc3[nH]ccc23)CC[C@@H]1C |  |  | healthy humans | dose not given |  | variability of steady-state Cmax | 38%
C=CC(=O)NC1CCN(c2ncc3ncnc(Nc4ccc(Oc5ccc6c(c5)ncn6C)c(C)c4)c3n2)CC1 |  |  | patients, NSCLC, HER2-mutant, previously treated | 120 mg once daily, grade ≥3 |  | treatment-related AEs incidence | 17%
CCCC(C)C(=O)O (centres unmarked) |  | small eyes | zebrafish embryo | nominal concentration |  | EC10 | > 900 µM
CN1CCN(c2cccc3c2CCN(C(=O)/C=C/c2c(-n4cnnn4)ccc(Cl)c2F)[C@@H]3C(=O)Nc2ccc(C(=O)O)cc2)C(=O)C1 |  |  | healthy human, infusion site pain | intravenous, dose not given |  | adverse event incidence | 5.9%
COc1ccnc(C[S+]([O-])c2nc3ccc(OC(F)F)cc3[nH]2)c1OC (centres unmarked) |  |  | obese children | dose not given | baseline: non-obese children | apparent clearance reduction | 50%
OC(Cn1cncn1)(Cn1cncn1)c1ccc(F)cc1F |  |  | human | oral, 400 mg single dose |  | AUC | 115000 ng·h/mL
O=C(NC[C@H]1CN(c2ccc(N3CCOCC3=O)cc2)C(=O)O1)c1ccc(Cl)s1 |  |  | human | Model A fixed |  | absorption rate constant | 0.82 h⁻¹
Cn1cnc2c(F)c(Nc3ccc(Br)cc3Cl)c(C(=O)NOCCO)cc21 |  |  | human, plasma | 75 mg, given alone |  | AUC, geometric mean | 4480 ng·h/mL
Nc1cc(C(F)(F)F)c(-c2nc(N3CCOCC3)nc(N3CCOCC3)n2)cn1 | SIK3 (Homo sapiens, UniProt Q9Y2K2) | enzyme activity |  | 10 µM | baseline: untreated | remaining activity | 84%
C#Cc1cccc(Nc2ncnc3cc(OCCOC)c(OCCOC)cc23)c1 |  |  | human | taken on empty stomach |  | decrease in bioavailability | 40%
CNC(C)C1CCC(N)C(OC2C(N)CC(N)C(OC3OCC(C)(O)C(NC)C3O)C2O)O1 (centres unmarked) | Pseudomonas aeruginosa |  | clinical isolate RKI-No_40/14 |  |  | MIC | > 8 µg/mL
CC(C)c1ncc(C(=O)N2CCOC3(CCN(Cc4ccc(F)c(CCNC[C@H](O)c5ccc(O)c6[nH]c(=O)sc56)c4)CC3)C2)s1 |  |  | human | inhaled |  | lung deposited fraction | 0.62

SMILES | target or system | assay | system | setting | how to read | quantity | value
CC(C)[C@H](N)C(=O)OCC(CO)OCn1cnc2c(=O)[nH]c(N)nc21 (some centres unmarked) |  |  | rat | 100 mg/kg |  | oral bioavailability | 88%
C=CC(=O)N1CCC(C(=O)NCC(=O)N2CCN(c3nc(-c4cnc(N)nc4C(F)F)nc(N4CCOCC4)n3)CC2)CC1 | PIK3CA (Homo sapiens, UniProt P42336, E542K) | kinase activity |  | 1 µM |  | remaining activity | 0%
O=C([O-])CC[C@H](NC(=O)N[C@@H](CCCCNC(=O)CCCCCCC(=O)NCCCC[C@@H](NC(=O)[C@@H](Cc1ccccc1)NC(=O)[C@@H](Cc1ccc(O)c(I)c1)NC(=O)CC[C@H](C(=O)[O-])N1CCN(CC(=O)[O-])CCN(CC(=O)[O-])CCN(CC(=O)[O-])CC1)C(=O)[O-])C(=O)[O-])C(=O)[O-].[177Lu+3].[H+].[H+].[H+].[H+].[H+] |  |  | mouse |  | baseline: cpd over [177Lu]Lu-PSMA-617 | peak kidney uptake ratio | ~40 fold
c1ccc2c(c1)c1cccc3ccc4cccc2c4c31 |  | slow stirring |  |  |  | logKow | 6.58
CO[C@@H](C)Cn1c(=O)n(C)c2cnc3ccc(-c4cncc(C(C)(C)O)c4)cc3c21 |  | refers to: vomiting | cancer patients | dose not given, monotherapy |  | patients with related adverse event | 31.3%
O=C(O)CN(CC(=O)O)CC(=O)O |  | pH-potentiometry, refers to: logK2H | 0.15 M NaClO4 | 25 °C |  | protonation constant (log) | 2.8
C[C@H]1COCCN1c1nc(-c2cnc(N)cc2C(F)F)nc(N2CCOCC2)n1 | SW-620 |  |  |  |  | GI50 | 0.665 µM
CO[C@H]1/C=C/O[C@@]2(C)Oc3c(C)c(O)c4c(O)c(c(/C=N/N5CCN(C)CC5)c(O)c4c3C2=O)NC(=O)/C(C)=C\C=C\[C@H](C)[C@H](O)[C@@H](C)[C@@H](O)[C@@H](C)[C@H](OC(C)=O)[C@@H]1C |  |  | rat, plasma | intravenous, 20 mg/kg |  | Cmax | ~30 µM
COC(=O)N[C@H](C(=O)N1CCC[C@H]1c1nc(-c2ccc3c(c2)O[C@@H](c2ccccc2)n2c-3cc3cc(-c4c[nH]c([C@@H]5CCCN5C(=O)[C@@H](NC(=O)OC)C(C)C)n4)ccc32)c[nH]1)C(C)C |  |  | HCV genotype 1 patients | 50 mg, 10 days | baseline: healthy volunteers | AUC(0-24) difference | ≤ 15%
C[C@@H](Oc1cc(-c2cnn(C3CCNCC3)c2)cnc1N)c1c(Cl)ccc(F)c1Cl |  |  | patients | dose not given, monotherapy |  | cardiac event incidence | 5%
CCOc1c([C@H](C)n2nc(C)c3c(N)ncnc32)cc(Cl)c(F)c1[C@@H]1CNC(=O)C1 |  |  | human | oral, 20 and 30 mg once daily, high-fat meal | baseline: fasted | AUC(0-8h) decrease | 26%
CN(CCOc1ccc(NS(C)(=O)=O)cc1)CCc1ccc(NS(C)(=O)=O)cc1 |  |  | AF patients | dose not given | baseline: patients | torsade de pointes incidence | 3.3%
CC1(C)S[C@@H]2[C@H](NC(=O)[C@H](N)c3ccccc3)C(=O)N2[C@H]1C(=O)O | Pseudomonas aeruginosa |  | clinical isolate RKI-No_221/16 |  |  | MIC | > 16 µg/mL
C=CCCC(=O)O |  | small eyes | zebrafish embryo | nominal concentration |  | EC10 | > 1400 µM
O=C(O)C(Cl)Cl |  |  | faeces | oral, concentration not given, time not given | baseline: dose | faecal recovery | ~2%
Cc1ccc(C)c(OCCCC(C)(C)C(=O)O)c1 |  |  | healthy volunteers | dose not given |  | AUC | 75000 ng·h/mL
Cc1cc(-c2nccc3c2ccn3CC(=O)Nc2ccc(-c3cnccn3)cn2)ccn1 |  |  | rat | 60 mg/kg/day, 1 month, repeat dosing |  | Cmax, total | 27.9 µM
CC(=O)OCC(CCn1cnc2cnc(N)nc21)COC(C)=O |  |  | rat | 400 mg/kg |  | oral bioavailability | 41%
C[C@H](C(=O)NCc1ccccc1)N1C(=O)CCC1=O |  | electroshock seizures | CD-1 mouse | intraperitoneal, 32 mA, 6 Hz |  | protective index | > 32
C=CC(=O)N1CCC([C@@H]2CCNc3c(C(N)=O)c(-c4ccc(Oc5ccccc5)cc4)nn32)CC1 |  |  | human patients | oral, 320 mg once daily, day 8 |  | AUC(0-8h) | 2280 ± 868 ng·h/mL
CNCc1cn(S(=O)(=O)c2cccc(F)c2)c(-c2ccc(F)cc2F)c1OC | CYP3A | enzyme activity |  |  |  | IC50 | 11.7 µM
COc1cc2c(Oc3ccc4[nH]c(C)cc4c3F)ccnc2cc1OCC1(N)CC1 |  |  | mouse | oral, dose not given |  | time of highest tissue concentration | 4 h
O=C(c1cc(Cc2n[nH]c(=O)c3ccccc23)ccc1F)N1CCN(C(=O)C2CC2)CC1 |  |  | human | oral tablet, 200 mg twice daily, multiple dose |  | AUC(last) | 36500 ng·h/mL
CC(C)c1nc(-c2cccc(NS(=O)(=O)c3c(F)cccc3F)c2F)c(-c2ccnc(N)n2)s1 |  |  | human | dose not given, dabrafenib monotherapy | baseline: metabolite over dabrafenib | metabolite to parent ratio | ~70%
CS(=O)(=O)CCNCc1ccc(-c2ccc3ncnc(Nc4ccc(OCc5cccc(F)c5)c(Cl)c4)c3c2)o1 |  |  | human, plasma | 1250 mg/day, 24 h post-dose |  | steady-state Cmin | 1000 ng/mL
CC(C)Nc1nc2cc(Cl)c(Cl)cc2n1[C@H]1O[C@@H](CO)[C@H](O)[C@@H]1O |  |  | human CMV transplant recipients | 400 mg twice daily |  | time to steady-state exposure | ≤ 2 days

Some of these lines once more:
SMILES | target or system | assay | system | setting | how to read | quantity | value
CCN(CC)CCNC(=O)c1ccc(NC(C)=O)cc1 | HepG2 | mitochondrial membrane potential |  | concentration not given, Tox21 |  | activity outcome | inactive
CN(C)C(=O)c1cc2cnc(Nc3ccc(N4CCNCC4)cn3)nc2n1C1CCCC1 |  | refers to: anemia | advanced solid tumour or lymphoma patients | dose not given, continuous dosing | baseline: patients | adverse event incidence | 26.3%
c1ccc2c(c1)ccc1ccccc12 |  | substrate | human liver microsomes |  |  | Vmax | 0.304 nmol/min/mg
C[Si]1(C)O[Si](C)(C)O[Si](C)(C)O[Si](C)(C)O[Si](C)(C)O1 |  |  |  | 0.13 0.24 µg/L in water, 24.6 °C |  | log KOA | 4.94
C[C@@H](Oc1ccc(S(C)(=O)=O)cc1C(=O)N1C[C@@H]2C[C@]2(c2cc(C(F)(F)F)on2)C1)C(F)(F)F |  |  | human, Phase I | Asian versus Caucasian participants |  | pharmacokinetic parameters | no effect
c1ccc2c(c1)ccc1ccccc12 |  |  | pooled human liver microsomes | 2.5 µM |  | metabolism rate | 252 pmol/min/mg
